Assay results of several laboratories.
Each line is one published result; not all experiments were run side by side. Several values in a cell are separate wells, animals, samples, runs or records. ± gives the spread as reported.
Chain of UniProt Q6GIL5 (whole entry, looked up): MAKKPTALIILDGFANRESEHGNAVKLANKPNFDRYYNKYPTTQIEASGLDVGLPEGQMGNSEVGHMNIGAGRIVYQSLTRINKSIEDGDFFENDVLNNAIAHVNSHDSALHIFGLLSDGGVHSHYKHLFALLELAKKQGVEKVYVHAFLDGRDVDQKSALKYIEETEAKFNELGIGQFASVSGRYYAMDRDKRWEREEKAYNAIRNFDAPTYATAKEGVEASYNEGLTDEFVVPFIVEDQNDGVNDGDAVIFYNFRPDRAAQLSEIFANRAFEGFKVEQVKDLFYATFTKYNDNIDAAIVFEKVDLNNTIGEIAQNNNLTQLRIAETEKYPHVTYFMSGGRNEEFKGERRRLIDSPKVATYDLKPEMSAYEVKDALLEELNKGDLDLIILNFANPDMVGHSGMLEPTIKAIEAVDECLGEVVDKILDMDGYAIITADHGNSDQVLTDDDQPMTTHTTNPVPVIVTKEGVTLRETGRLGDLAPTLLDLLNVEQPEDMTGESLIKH

SMILES = O=c1cc(-c2ccccc2)oc2c(Br)c(O)c(O)c(O)c12; system = C57BL/6 mouse, plasma; conditions = po, 150 mg/kg, enterohepatic recirculation; quantity = time of secondary peak; result = 6 h and 12 h
SMILES = [2H]C([2H])([2H])C([2H])([2H])C([2H])([2H])OC(C(=O)OC1CCNCC1)(c1ccccc1)c1ccccc1; assay = item: aspartate aminotransferase increased; system = healthy Japanese male; conditions = oral, 12 mg once daily, 16 days; quantity = adverse drug reactions; result = 0%
SMILES = CN[C@](C)(C[18F])C(=O)O; target or system = A549 tumour model; system = host not given, blood; conditions = 15 min, tumour-bearing; quantity = tracer uptake; result = 2.6 %ID/g
SMILES = CCNc1cc2[o+]c3cc(NCC)c(C)cc3c(-c3ccccc3C(=O)OCCOCC[18F])c2cc1C; system = rat, heart; conditions = 30 min; quantity = tissue uptake; result = 1.32 ± 0.06 %ID/g
SMILES = CCCCCCCCCCCCC(=O)O.O=C1CCCC2C3CCCN4CCCC(CN12)C34 (stereo not shown); assay = thermogravimetry; conditions = first decomposition step, together with: heating 10 K/min under argon; quantity = onset decomposition temperature; result = 201 °C
SMILES = Cc1ccc(/C=C/C(=O)O)cc1-c1cc2c(cc1C)C(C)(C)CCC2(C)C; system = Sprague-Dawley rat, male; conditions = oral, 100 mg/kg, 9 h, sesame oil vehicle; quantity = blood cholesterol; result = 66 ± 15.1 mg/dL
SMILES = CC[C@H](C)[C@H](NC(=O)CNC(=O)[C@@H](NC(=O)[C@H](Cc1ccc(O)cc1)NC(=O)[C@@H](NC(=O)[C@H](CO)NC(=O)[C@@H](NC(=O)[C@H](C)NC(=O)[C@@H]1CCCN1C(=O)[C@@H](NC(=O)[C@H](Cc1ccccc1)NC(=O)[C@H](CCCCN)NC(=O)[C@H](CCC(=O)O)NC(=O)[C@H](Cc1ccc(O)cc1)NC(=O)[C@H](CC(C)C)NC(=O)[C@H](CC(=O)O)NC(=O)[C@H](CCCNC(=N)N)NC(=O)[C@H](CC(C)C)NC(=O)[C@H](CCCCN)NC(=O)[C@H](CCC(=O)O)NC(=O)[C@H](Cc1ccccc1)NC(=O)[C@@H](NC(=O)[C@H](CCC(=O)O)NC(=O)[C@H](CCCCN)NC(=O)[C@H](CC(C)C)NC(=O)[C@H](Cc1ccc(O)cc1)NC(=O)[C@@H](N)CC(=O)O)C(C)C)[C@@H](C)O)C(C)C)[C@@H](C)O)[C@@H](C)O)C(=O)N[C@@H](Cc1ccccc1)C(=O)N[C@H](C(=O)N[C@@H](CC(=O)O)C(=O)N[C@@H](CCC(N)=O)C(=O)N[C@H](C(=O)N[C@@H](CC(C)C)C(=O)N[C@@H](CO)C(=O)N[C@H](C(=O)N[C@@H](CC(C)C)C(=O)N[C@@H](CCCCN)C(=O)NCC(=O)N[C@@H](CCC(=O)O)C(=O)N[C@@H](CCC(=O)O)C(=O)O)C(C)C)C(C)C)[C@@H](C)O; system = cynomolgus monkey; conditions = intravenous, 8 and 80 mg/kg; quantity = terminal half-life; result = 42 to 50 h
SMILES = N=C(N)NCCC[C@@H]1NC(=O)[C@H](CCCCNC(=O)CC[C@H](NC(=O)CCOCCOCCOCCOCCNC(=O)CN2CCN(CC(=O)O)CCN(CC(=O)O)CCN(CC(=O)O)CC2)C(=O)NCCCC[C@@H]2NC(=O)[C@@H](Cc3ccccc3)NC(=O)[C@H](CC(=O)O)NC(=O)CNC(=O)[C@H](CCCNC(=N)N)NC2=O)NC(=O)[C@@H](Cc2ccccc2)NC(=O)[C@H](CC(=O)O)NC(=O)CNC1=O [indium-111 labelled]; system = female athymic nude mice, muscle; conditions = intravenous, 3 µCi, 4 h, U-87 MG glioma xenograft; quantity = tissue uptake; result = 0.7 ± 0.41 %ID/g
SMILES = COc1ccc(NC(=O)Cn2c(=O)c3ccccc3n(CC(=O)Nc3cc([125I])c(OC)cc3OC)c2=O)cc1; system = rat, intestine; conditions = intravenous, 30 min; quantity = tracer uptake; result = 5.32 %ID/g
SMILES = C[C@@H](O)[C@@H]1NC(=O)[C@H](CC(=O)O)NC(=O)[C@@H]2CCCN2C(=O)[C@H](Cc2ccc(O)cc2)NC(=O)CSC[C@@H](C(N)=O)NC(=O)[C@H](Cc2c[nH]cn2)NC(=O)[C@H](Cc2c[nH]c3ccccc23)NC(=O)[C@H](CCC(=O)O)NC(=O)[C@H](CC(=O)O)NC(=O)[C@H](Cc2ccc(O)cc2)N(C)C(=O)[C@H](Cc2ccc(O)cc2)NC(=O)[C@H](Cc2c[nH]c3ccccc23)NC(=O)[C@H](Cc2c[nH]c3ccccc23)NC(=O)[C@H](CC(N)=O)NC1=O; target or system = cofactor-independent phosphoglycerate mutase (Metamycoplasma orale, UniProt A0A448ZXM1, W431C); assay = biochemical; system = Mycoplasma orale; quantity = AC50; result = 2.45 nM
SMILES = COc1cc2c3c(c4cc(OC)c(OC)c(OC)c4c2cc1OC)CC1CCCN1C3 (stereo not shown); system = swine cells; conditions = 24 (unit not given); quantity = CC50; result = 83800 ± 3290 nM
SMILES = COc1cc(NC(=O)C(=O)c2c(C)n(Cc3ccc(Cl)cc3)c3ccc(C)cc23)ccn1; system = cynomolgus monkey, male and female, plasma; conditions = oral, 10 mg/kg, range of sex means; quantity = terminal half-life; result = 17 to 20 h
SMILES = CC(C)[C@@H]1NC(=O)[C@H](CCC(N)=O)NC(=O)[C@@H](Cc2ccc(O)cc2)NC(=O)CSC[C@@H](C(N)=O)NC(=O)[C@H](CC(=O)O)NC(=O)[C@H](CCC(=O)O)NC(=O)[C@H](Cc2c[nH]c3ccccc23)NC(=O)[C@@H]2CCCN2C(=O)[C@H](CO)N(C)C(=O)[C@H](C)NC(=O)[C@H](Cc2c[nH]c3ccccc23)NC(=O)[C@H](Cc2c[nH]c3ccccc23)NC(=O)[C@H](C(C)C)NC(=O)[C@H]([C@@H](C)O)NC1=O; target or system = 2,3-bisphosphoglycerate-independent phosphoglycerate mutase (gpmI, Staphylococcus aureus, UniProt Q6GIL5); assay = enzyme activity; quantity = AC50; result = 38 nM
SMILES = CN(C)C(CNC(=O)Nc1cc(C(F)(F)F)ccc1N1CCOCC1)c1ccncc1 (stereo not shown); system = mouse, serum; conditions = intraperitoneal, 120 mg/kg single dose; quantity = serum anion gap; result = 23 mmol/L
SMILES = O=C(c1ccc(F)cc1)C1CCN(C2Cc3c(cccc3OCC[18F])CC2O)CC1 (single isomer, unassigned; (-)); system = Sprague-Dawley rat, male, whole brain; conditions = 5 min post-injection; quantity = tissue uptake; result = 0.684 ± 0.079 %ID/g
SMILES = N=C(N)NCCC[C@@H]1NC(=O)[C@H](CCCCNC(=O)CNC(=O)CNC(=O)CNC(=O)CC[C@H](NC(=O)CCOCCOCCOCCOCCNC(=O)CC[C@H](NC(=O)CN2CCN(CC(=O)O)CCN(CC(=O)O)CCN(CC(=O)O)CC2)C(=O)NCCOCCOCCOCCOCCC(=O)N[C@@H](CCC(=O)NCC(=O)NCC(=O)NCC(=O)NCCCC[C@@H]2NC(=O)[C@@H](Cc3ccccc3)NC(=O)[C@H](CC(=O)O)NC(=O)CNC(=O)[C@H](CCCNC(=N)N)NC2=O)C(=O)NCC(=O)NCC(=O)NCC(=O)NCCCC[C@@H]2NC(=O)[C@@H](Cc3ccccc3)NC(=O)[C@H](CC(=O)O)NC(=O)CNC(=O)[C@H](CCCNC(=N)N)NC2=O)C(=O)NCC(=O)NCC(=O)NCC(=O)NCCCC[C@@H]2NC(=O)[C@@H](Cc3ccccc3)NC(=O)[C@H](CC(=O)O)NC(=O)CNC(=O)[C@H](CCCNC(=N)N)NC2=O)NC(=O)[C@@H](Cc2ccccc2)NC(=O)[C@H](CC(=O)O)NC(=O)CNC1=O [indium-111 labelled]; system = female athymic nude mice, brain; conditions = intravenous, 3 µCi, 4 h, U-87 MG glioma xenograft; quantity = tissue uptake; result = 0.06 ± 0.02 %ID/g

A few entries again:
SMILES = N=C(N)NCCC[C@@H]1NC(=O)[C@H](CCCCNC(=O)CNC(=O)CNC(=O)CNC(=O)CC[C@H](NC(=O)CCOCCOCCOCCOCCNC(=O)CC[C@H](NC(=O)CN2CCN(CC(=O)O)CCN(CC(=O)O)CCN(CC(=O)O)CC2)C(=O)NCCOCCOCCOCCOCCC(=O)N[C@@H](CCC(=O)NCC(=O)NCC(=O)NCC(=O)NCCCC[C@@H]2NC(=O)[C@@H](Cc3ccccc3)NC(=O)[C@H](CC(=O)O)NC(=O)CNC(=O)[C@H](CCCNC(=N)N)NC2=O)C(=O)NCC(=O)NCC(=O)NCC(=O)NCCCC[C@@H]2NC(=O)[C@@H](Cc3ccccc3)NC(=O)[C@H](CC(=O)O)NC(=O)CNC(=O)[C@H](CCCNC(=N)N)NC2=O)C(=O)NCC(=O)NCC(=O)NCC(=O)NCCCC[C@@H]2NC(=O)[C@@H](Cc3ccccc3)NC(=O)[C@H](CC(=O)O)NC(=O)CNC(=O)[C@H](CCCNC(=N)N)NC2=O)NC(=O)[C@@H](Cc2ccccc2)NC(=O)[C@H](CC(=O)O)NC(=O)CNC1=O [indium-111 labelled]; system = female athymic nude mice, brain; conditions = intravenous, 3 µCi, 4 h, U-87 MG glioma xenograft; quantity = tissue uptake; result = 0.06 ± 0.02 %ID/g
